# Experimental data collected from several papers.
# Numbered parts are unrelated; each lists some results of a single study.

# Sample 1 — method: universal PBM; molecule type: double-stranded DNA, one strand shown; medium: in vitro; tested at: 600 nM; reading: higher = stronger binding
# Target: Sal-like protein 4, full length isoform A (SALL4, Homo sapiens, UniProt Q9UJQ4, residues 1-1053)
# UniProt Q9UJQ4, sequence (whole entry, looked up): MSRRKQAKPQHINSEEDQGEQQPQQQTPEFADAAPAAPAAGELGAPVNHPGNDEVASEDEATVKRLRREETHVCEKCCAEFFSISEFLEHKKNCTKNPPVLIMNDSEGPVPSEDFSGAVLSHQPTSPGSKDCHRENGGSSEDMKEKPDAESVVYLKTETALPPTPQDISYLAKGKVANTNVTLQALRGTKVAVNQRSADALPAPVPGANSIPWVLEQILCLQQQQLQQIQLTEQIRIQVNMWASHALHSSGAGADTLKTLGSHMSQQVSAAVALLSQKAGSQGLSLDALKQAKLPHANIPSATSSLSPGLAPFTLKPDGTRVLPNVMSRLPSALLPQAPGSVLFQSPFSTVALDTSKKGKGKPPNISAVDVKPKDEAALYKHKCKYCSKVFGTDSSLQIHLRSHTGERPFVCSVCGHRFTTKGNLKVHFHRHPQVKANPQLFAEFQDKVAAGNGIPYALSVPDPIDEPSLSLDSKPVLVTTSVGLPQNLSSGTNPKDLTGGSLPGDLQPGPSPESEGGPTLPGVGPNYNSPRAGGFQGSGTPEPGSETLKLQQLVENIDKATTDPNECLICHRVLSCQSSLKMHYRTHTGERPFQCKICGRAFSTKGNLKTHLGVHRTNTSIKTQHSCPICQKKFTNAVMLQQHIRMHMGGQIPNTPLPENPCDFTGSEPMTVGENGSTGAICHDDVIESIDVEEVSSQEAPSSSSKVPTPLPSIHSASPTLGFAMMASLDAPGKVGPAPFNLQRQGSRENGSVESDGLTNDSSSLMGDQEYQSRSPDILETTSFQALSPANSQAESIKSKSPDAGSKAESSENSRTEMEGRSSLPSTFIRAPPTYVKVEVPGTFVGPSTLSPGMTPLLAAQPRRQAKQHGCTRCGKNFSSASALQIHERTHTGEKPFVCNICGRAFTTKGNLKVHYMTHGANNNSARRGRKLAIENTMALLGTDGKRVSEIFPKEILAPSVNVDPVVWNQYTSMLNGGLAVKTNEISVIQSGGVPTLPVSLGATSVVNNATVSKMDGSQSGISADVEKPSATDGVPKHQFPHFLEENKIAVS
# Setting: 8-mer, flanks averaged, mean of replicates
Strand,E-score
CTCCTTGA,-0.0539
AACCAGGG,-0.168
GAGCCAGC,-0.232
AAGCTTAC,-0.0166
CCATCCGG,-0.301
AGACATCA,0.0483
CCGCAGGA,-0.299
CTGATTGA,0.0271
CGAGAACG,-0.0592
TACGTAGA,0.109
CTCTTTAA,0.0657
AGCTCTTG,-0.234
GGCTCCCA,-0.339
AGAATTAT,0.37
ATGTTCGA,0.0384
ATGGCTGC,-0.108

# Sample 2 — method: RNA Bind-n-Seq; molecule type: RNA; medium: in vitro; tested at: 200 nM; setting: whole 134-nt RNA, ends assumed; added: 150 mM KCl; relative to: input library; reading: higher = stronger binding
# Target: Fragile X messenger ribonucleoprotein 1, C-terminal low-complexity region (Fmr1, Mus musculus, UniProt P35922)
Strand,log2 enrichment
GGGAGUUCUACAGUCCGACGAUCCAAGUCCUGUGCUACACAUCGUAUGUACCGAAUCAAAUUUAAACCCAAAUUUAAAAAAGUAUUAUGUUACGCCGUUCGGAUCUGCACUUCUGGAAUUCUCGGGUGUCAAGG,0.0629
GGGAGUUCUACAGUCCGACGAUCUCAAGUCCUGUGCUACACAUCGUAUGUACCGAAUCGGGUGGGAAAGGGAAAGGGAAAGUAUUAUGUUACGCCGUUCGGAUCUGCACUUCCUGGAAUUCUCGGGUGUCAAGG,0.886
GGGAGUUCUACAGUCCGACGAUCUGGGAGGUGGAUUUUGUUUAUUUUUUUAGCUCAUUUCCAGGGGUGGGAAUUUUUUUUUAAUAUGUGUCAUGAAUAAAGUUGUUUUUGGAAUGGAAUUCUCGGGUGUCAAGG,0.409
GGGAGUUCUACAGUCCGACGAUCACCAUGCAGGUGGGCAUCUUUGGGAAGUGGGGCAAGGGGGGGAAAAGGAGGGGGGUAACACUUUGGGAACAGGUGGUCCCAGGUCGUUUCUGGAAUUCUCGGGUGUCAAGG,0.515
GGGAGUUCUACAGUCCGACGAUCUGCCUUGCAGAUACGUGGCUUUCCUGAAGCUGUUCCUGGAGACGGCGGAGAAGCACUUCAUGGUGGGCCACCGUGUCCACUACUAUGUCUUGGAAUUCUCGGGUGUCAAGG,-1.34
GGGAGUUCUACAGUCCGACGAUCUCCUGUGCUACACAUCGUAUGUACCGAAUCGGUUUUUUUGGGUUUUUUUGGUUUUUUUGGAAAGUAUUAUGUUACGCCGUUCGGAUCUGCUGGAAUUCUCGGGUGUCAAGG,0.114
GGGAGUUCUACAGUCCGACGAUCAAGUCCUGUGCUACACAUCGUAUGUACCGAAUCGGGGAAAGGGAAAGGGGAAAGGGGAAAGUAUUAUGUUACGCCGUUCGGAUCUGCACUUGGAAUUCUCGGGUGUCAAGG,0.281
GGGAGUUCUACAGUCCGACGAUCAAGUCCUGUGCUACACAUCGUAUGUACCGAAUCGGAAAAGGGAAAAGGAAAAGGGGAAAGUAUUAUGUUACGCCGUUCGGAUCUGCACUUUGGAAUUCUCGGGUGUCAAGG,-0.482
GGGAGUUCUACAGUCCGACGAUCACCAUGCAGGUGGGCAUCUUUGGGAAGUGGGGCAAGGGGGGGAUAGGGAGGGGGGUAACACUUUGGGAAGAGGUGGUCCCAGGUCGUUUCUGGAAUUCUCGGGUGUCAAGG,0.649
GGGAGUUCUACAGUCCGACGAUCAAGUCCUGUGCUACACAUCGUAUGUACCGAAUCGGAAAAAAAGGAAAAAAAGGAGGAAAGUAUUAUGUUACGCCGUUCGGAUCUGCACUUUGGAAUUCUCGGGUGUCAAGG,-0.83

# Sample 3 — method: protein binding microarray; molecule type: double-stranded DNA, one strand shown; medium: in vitro; tested at: not given; relative to: not given; reading: higher = stronger binding
# Target: Histone acetyltransferase KAT6A, winged helix 2, GST fusion (KAT6A, Homo sapiens, UniProt Q92794, residues 85-181)
# Setting: 8-mer, flanks averaged, mean of 2 arrays, mostly near background
# Construct (chain): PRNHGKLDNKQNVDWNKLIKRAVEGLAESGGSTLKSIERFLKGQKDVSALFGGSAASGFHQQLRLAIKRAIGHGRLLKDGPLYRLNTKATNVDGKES
Strand,E-score
CTCACCAA,0.127
CAATTGCG,0.00541
CACTCGGG,0.175
TAGAGGCA,-0.164
CCCCTCCA,0.0789
CGCTGCGC,0.235
CTCCCGCA,0.206
CGTGCACG,-0.0801
AGCCTTCG,-0.0223
AAAGCCCG,-0.066
CGCTTGAA,0.115
GGAGACTA,-0.0892
AATCAAAG,-0.00543
AGGTGAAG,-0.013
TAGGGGCA,-0.117
TCATCAAA,0.0344
CCCGCAGG,0.258
ACTTAGGG,-0.0957

# Sample 4 — method: RNA Bind-n-Seq; molecule type: RNA; medium: in vitro; tested at: 100 nM; relative to: input RNA pool; reading: higher = stronger binding
# Target: RING finger protein unkempt homolog, zinc fingers 1-6, SBP tag (UNK, Homo sapiens, UniProt Q9C0B0, residues 30-357)
# UniProt Q9C0B0, sequence (30-357, looked up): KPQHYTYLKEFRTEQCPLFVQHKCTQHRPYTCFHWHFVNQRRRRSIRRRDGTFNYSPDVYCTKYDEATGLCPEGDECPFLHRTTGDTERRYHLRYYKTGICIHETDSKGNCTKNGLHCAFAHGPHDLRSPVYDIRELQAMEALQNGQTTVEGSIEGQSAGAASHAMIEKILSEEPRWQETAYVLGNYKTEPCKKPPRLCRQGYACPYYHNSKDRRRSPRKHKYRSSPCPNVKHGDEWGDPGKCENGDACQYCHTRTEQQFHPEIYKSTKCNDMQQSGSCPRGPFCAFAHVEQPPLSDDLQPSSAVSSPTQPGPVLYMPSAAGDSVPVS
# Setting: RNA with constant flanks, vertebrate orthologous sites, ends assumed
Strand,bound/input enrichment [ratio]
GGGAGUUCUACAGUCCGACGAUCAACUCUUACAGUCUUAGAUGUUAUUAAAAAAUAUAAAUAUAUCUGAAUUGUAAGAGUUGUUAGCACAGGUGUUUUGUUUUUGUGGUUUUUUUUUUUUUGAAGCACUUGUUUUUGGGUACACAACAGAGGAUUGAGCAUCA,0.655
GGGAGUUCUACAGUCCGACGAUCGCUGCCGCAGCCCUGGCGCCGGCCGUUCCAGUUCUUAGAGUGUUCUCUUGCUUGUAGUCUCUAGGGGUCAGGUGGGUUGUGCACACCUCUGAGGCAGGAGCUUAGGGGCCCAUCUCAUAUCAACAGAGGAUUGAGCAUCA,0.621
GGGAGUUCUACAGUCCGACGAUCUUUAUUGAUCAGGUCUGUAAAUGUGUACUAAAAUGAAUCAGAGUUUAUUUAUAAACAGAAUAGUUUAUUUAAAGAGAAGGUCUUUUCCUCACUGAUAUCGUGGUAUGCAUUAAUUCUAUUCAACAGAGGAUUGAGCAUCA,0.119
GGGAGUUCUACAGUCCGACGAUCCACGUCUGGUGAUAUUUGGCCUGGCCUUUCAGCUUAUGAUAAUAGUCCCAGAUCACCCCAUAGUCCUUCACCAAUUGCUACACCACCCAGCCAGAGUUCAUCUUGCUCUGAUGCCCCCAUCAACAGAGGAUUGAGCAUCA,1.16
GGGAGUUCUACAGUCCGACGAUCAGGAAAUGCUGGCUGCAAAUCCUCAGGAUCGUCCAGACGCUUUUGAACUAGAACUCAGAUUAGUACAAAUUGCGUUUAAAGAUAGCAGCUGGGAAACGUGACACACAUAUUAUCUGCAGACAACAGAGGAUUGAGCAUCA,0.723
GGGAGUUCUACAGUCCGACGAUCUUUUAUUGAUCAGGUCUGUAAAUGUGUACUAAAAAAAUCAGAGUUUAUUUAUAAAUAGAAUAGUUUAUUUAAAGAGGUAUUUUCCUCCUUGAUAUCAUGGUAUGCAUAAUUCUGUGUGUUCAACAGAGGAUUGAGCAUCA,0.501
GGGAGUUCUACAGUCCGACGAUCCCGAAAGGCCAAAUUCCCUCCUCCCUCCUACUGCUUCUACCAACUGGAAGCACAGAAAACUAGAAUUUCAUUUAUUUUUUUUUUUAAUGUUGAUUUCUUGUAACAUCCAAUAGGAAUGCUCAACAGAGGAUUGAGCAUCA,2
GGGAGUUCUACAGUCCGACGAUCAUUUCCCGUUUACCCAGUGACACUUUUUACUGAUUUCAUUUCCAUGCAUCUCUUUAAACUUGCCAGUUUUUACCCUCUACUGCACCCUGAAAAGACUGAGGAUGAUCUGAAAGGUGUUUUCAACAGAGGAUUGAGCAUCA,0.546
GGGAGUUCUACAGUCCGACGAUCCAGCUGAUUCACUCAUUGGGAGAGCUGCACAUAUAGCUGUUCUUGAUUCAGAAAUAUUUUUAGAGAAAUUCUUUCUGGUUGCUGCCCUUAAGUAUUUCCAAUAGAAUGAAAGCAUUGUUACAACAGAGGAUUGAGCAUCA,0.677
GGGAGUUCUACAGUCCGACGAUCAUGUAGUUUGUUUUUAAUUUCAAGCAAAAUCUUAUUGUACUUGAAUGUGCCCUGUUUUGUUAGCACACCUAGACUUGCUGUAACUGUACUCAUGUCCCAGUAUGUACGUUCUUUCUAUGACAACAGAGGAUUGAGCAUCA,0.981
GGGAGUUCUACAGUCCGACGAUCAUCUCUCAUUUUACAUGUCCAAAAAAAGUUUGGAAUUUUUAAACAAUUGCUAGUUUUAAUUAGCUCUGCCCUCAUGAAGUAUUAUAAUCACCAAAAACAGAUUAUCUGUCUGAAUUACUUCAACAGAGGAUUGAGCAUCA,0.571

# Repeated from above (sample 3):
Strand,E-score
CGTGCACG,-0.0801
AGCCTTCG,-0.0223
AAAGCCCG,-0.066
CGCTTGAA,0.115
GGAGACTA,-0.0892
